Measurements of several laboratories.
“And” joins repeats or separate records; there may be more than shown. ± marks the error that the study gave.

| SMILES | tested on | assay | test system | setting | scale | endpoint | result |
| --- | --- | --- | --- | --- | --- | --- | --- |
| O=C(O)c1ccc(-c2nc(-c3ccccc3Cl)c3sccn23)cc1 | K562 | erythroid differentiation, flow cytometry |  | 0.1 mM, 72 h |  | CD235a-positive cells | 42.2% and 77% |
| CC[C@H](C)[C@H](NC(=O)[C@H](C)NC(=O)CNC(=O)[C@H](Cc1ccccc1)NC(=O)[C@H](CC(N)=O)NC(=O)[C@H](CC(N)=O)NC(=O)[C@H](CO)NC(=O)[C@H](CO)NC(=O)[C@H](Cc1c[nH]cn1)NC(=O)[C@@H](NC(=O)[C@H](CC(C)C)NC(=O)[C@H](Cc1ccccc1)NC(=O)[C@H](CC(N)=O)NC(=O)[C@H](C)NC(=O)[C@H](CC(C)C)NC(=O)[C@H](CCCNC(=N)N)NC(=O)[C@H](CCC(N)=O)NC(=O)[C@@H](NC(=O)[C@H](C)NC(=O)[C@@H]1CSSC[C@H](NC(=O)[C@@H](N)CCCCN)C(=O)N[C@@H](CC(N)=O)C(=O)N[C@@H]([C@@H](C)O)C(=O)N[C@@H](C)C(=O)N[C@@H]([C@@H](C)O)C(=O)N1)[C@@H](C)O)C(C)C)C(=O)N[C@@H](CC(C)C)C(=O)N[C@@H](CO)C(=O)N[C@@H](CO)C(=O)N[C@H](C(=O)N[C@@H](CC(N)=O)C(=O)N[C@H](C(=O)NCC(=O)N[C@@H](CO)C(=O)N[C@@H](CC(N)=O)C(=O)N[C@H](C(=O)N[C@@H](Cc1ccc(O)cc1)C(N)=O)[C@@H](C)O)C(C)C)[C@@H](C)O | INS-1 832/13 | cell viability, CellTiter-Glo |  | 24 h |  | EC50 | 60 µM |
| CCC1=NC2CC3(C(=O)N(OC)c4ccccc43)C3OCC2C1C3O (stereo not drawn) | Vero | CCK-8 |  | up to 100 µM, 24 h |  | viability | no effect |
| CC(C)(C)C(=O)OCOP(=O)(OCOC(=O)C(C)(C)C)C1CCCN(O)C1=O (stereo not drawn) | BT-549 |  |  |  |  | GI50 | 0.313 µM |
| NC(=S)N/N=C/c1ccc(OCc2cccc(F)c2)cc1 | IMR-32 | item: GPX3 |  | 50 µg/mL, 24 h | higher = more activity | glutathione peroxidase activity (OD450) | 0.092 a.u. |
| COc1ccccc1-c1ccncc1C(=O)Nc1nnc(OCc2ccc(Cl)cc2)s1 | DLD-1 parental |  |  | 4 µM | baseline: untreated | colony survival | 99.3% and 95.8% and 99.4% |
| CCOC(=O)C1(Cc2ccccc2)Oc2cc(F)ccc2N(Cc2ccccc2)C1=O (stereo not drawn) | L02 | cell growth or viability, CCK-8 |  | 12.5 µM, 72 h |  | inhibition | 0.34% |
| Cc1cc(Oc2nc(N3CC[C@@H](c4ccncc4)C3)ncc2F)[nH]n1 | Hs 729 | cell proliferation |  |  |  | IC50 | > 100 µM |
| CC1OC2OC3C4=C(OC3(C)C12O)C(=O)c1c(O)cccc1C4=O (stereo not drawn) | SiHa | sulforhodamine B |  | 10 µg/mL, 48 h | negative means cell kill | growth percent | -31.2% |
| CC(C)[C@H](NC(=O)[C@H](CCCNC(=N)N)NC(=O)[C@@H]1CCCN1C(=O)[C@@H](NC(=O)[C@H](C)NC(=O)[C@H](Cc1ccc(O)cc1)NC(=O)[C@H](CCC(N)=O)NC(=O)[C@H](CCCCN)NC(=O)[C@H](CCCNC(=N)N)NC(=O)[C@@H]1CCCN1C(=O)[C@H](CCC(=O)O)NC(=O)[C@@H](NC(=O)[C@H](C)N)[C@@H](C)O)[C@@H](C)O)C(=O)N[C@@H](Cc1ccccc1)C(=O)N[C@@H](Cc1c[nH]c2ccccc12)C(=O)N[C@H](C(=O)N[C@@H](CC(=O)O)C(=O)N[C@@H](C)C(=O)N1CCC[C@H]1C(=O)NCC(=O)NCCOCCOCCOCCOCCOCCOCCOCCOCCOCCOCCOCCOCCC(=O)N[C@@H](CS)C(N)=O)[C@@H](C)O | H2073 lung adenocarcinoma | cell binding, phage binding, item: output/input phage |  | 10 min, 37 °C | baseline: control phage | selectivity ratio | 60 ± 20 |
| O=C1NC2(CC2)COc2ncc(F)cc2[C@H]2COCCN2c2ccn3ncc1c3n2 |  |  | Sprague-Dawley rat, male, blood | oral, 2.5 mg/kg/day, end of treatment, 4-week repeated-dose toxicity | baseline: leukocytes | neutrophils | 18.5 ± 6.2% |
| CC(C)C12OC1C1OC13C1(C)CCC4=C(COC4=O)C1CC1OC13C2OC(=O)CCCOC1OC(CO)C(O)C(O)C1O (stereo not drawn) | primary mammary epithelial cells | cell viability, XTT |  | 47 h |  | IC50 | 4.31 µM |

Excerpt of the above:
| SMILES | tested on | assay | test system | setting | scale | endpoint | result |
| --- | --- | --- | --- | --- | --- | --- | --- |
| CC(C)[C@H](NC(=O)[C@H](CCCNC(=N)N)NC(=O)[C@@H]1CCCN1C(=O)[C@@H](NC(=O)[C@H](C)NC(=O)[C@H](Cc1ccc(O)cc1)NC(=O)[C@H](CCC(N)=O)NC(=O)[C@H](CCCCN)NC(=O)[C@H](CCCNC(=N)N)NC(=O)[C@@H]1CCCN1C(=O)[C@H](CCC(=O)O)NC(=O)[C@@H](NC(=O)[C@H](C)N)[C@@H](C)O)[C@@H](C)O)C(=O)N[C@@H](Cc1ccccc1)C(=O)N[C@@H](Cc1c[nH]c2ccccc12)C(=O)N[C@H](C(=O)N[C@@H](CC(=O)O)C(=O)N[C@@H](C)C(=O)N1CCC[C@H]1C(=O)NCC(=O)NCCOCCOCCOCCOCCOCCOCCOCCOCCOCCOCCOCCOCCC(=O)N[C@@H](CS)C(N)=O)[C@@H](C)O | H2073 lung adenocarcinoma | cell binding, phage binding, item: output/input phage |  | 10 min, 37 °C | baseline: control phage | selectivity ratio | 60 ± 20 |
